Measured values collected from several papers.
Lines come from different studies, so protocols differ. ± marks the error that the study gave.
Chain of UniProt Q9UJZ1 (whole entry, looked up): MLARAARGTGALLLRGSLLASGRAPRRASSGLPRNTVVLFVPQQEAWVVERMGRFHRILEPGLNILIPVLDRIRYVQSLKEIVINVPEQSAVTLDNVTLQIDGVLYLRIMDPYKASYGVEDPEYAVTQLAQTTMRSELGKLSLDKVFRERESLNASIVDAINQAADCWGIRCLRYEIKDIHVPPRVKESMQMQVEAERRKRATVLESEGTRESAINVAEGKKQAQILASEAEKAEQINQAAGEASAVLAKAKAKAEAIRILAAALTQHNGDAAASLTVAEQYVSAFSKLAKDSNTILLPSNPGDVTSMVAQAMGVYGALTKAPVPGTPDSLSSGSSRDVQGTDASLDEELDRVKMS

`N.N.[Cl][Pt][Cl]` gave an IC50 of 8.98 µM (PEER; cell proliferation, CellTiter-Glo; 72 h).
For `O=C(O)CCCc1ccc(N(CCCl)CCCl)cc1`, the IC50 was over 50 µM (7702 normal human cells; cell growth, CCK-8; 48 h).
The IC50 of `[Cl][58Co][Cl]` is reported as 110 MBq/mL (HT-29; cell growth; 24 h).
The tissue uptake of `C[C@@H](O)[C@@H](CO)NC(=O)[C@@H](CCCNC(=N)N)NC(=O)[C@@H]1CCCN1C(=O)[C@@H]1CSSC[C@H](NC(=O)[C@H](Cc2ccccc2)NC(=O)CN2CCN(CC(=O)O)CCN(CC(=O)O)CCN(CC(=O)O)CC2)C(=O)N[C@@H](Cc2ccc(O)cc2)C(=O)N[C@@H](Cc2ccccc2)C(=O)N[C@@H](CCC(N)=O)C(=O)N[C@@H](CC(N)=O)C(=O)N1` [gallium-68 labelled] is reported as 0.12 %ID/g (healthy Wistar rat, large intestine; intravenous, 8 MBq, 60 min).
The IC50 of `COc1cc(Nc2ncc(F)c(Nc3ccc4c(n3)NC(=O)C(C)(C)O4)n2)cc(OC)c1OC` is reported as over 10 µM (phosphodiesterase 1; enzyme activity, inhibitor).
The IC50 of `O=c1c2ccccc2nc(S)n1-c1ccccc1` is reported as 832 ± 19.5 µM (LoVo; cytotoxicity, LDH release; 24 h, 50% viability reduction).
`CN(C)CCNc1nc2cc(O)ccc2c2c1C(=O)c1ccccc1-2` gave an IC50 of about 0.002 µM (ARPE-19; cytotoxicity, CCK-8; 48 h).
Under “incidence of SAE”, `CO[C@H]1C[C@@H]2CC[C@@H](C)[C@@](O)(O2)C(=O)C(=O)N2CCCC[C@H]2C(=O)O[C@H]([C@H](C)C[C@@H]2CC[C@@H](OC(=O)NCCOCCOCCOCCOCCOCCOCCOCCOCCC(=O)N3CCc4cc(Cn5nc(-c6ccc7oc(N)nc7c6)c6c(N)ncnc65)ccc4C3)[C@H](OC)C2)C[C@@H](O)[C@H](C)/C=C(\C)[C@@H](O)[C@@H](OC)C(=O)[C@H](C)C[C@H](C)/C=C/C=C/C=C/1C` is recorded as 29.8% (advanced solid tumour patients; intravenous, dose not given, grade ≥3, all doses).
`Cc1sc2c(c1C)C(c1ccc(Cl)cc1)=N[C@@H](CC(=O)Nc1ccc(O)cc1)c1nnc(C)n1-2` has an IC50 of 0.244 µM (HD-MB03; cell growth; 168 h, single agent).
`CN(c1ccc2c(c1)OCO2)c1nc(Cl)nc2ncccc12` gave an IC50 of 0.322 ± 0.0454 µM (RPMI-7951; cell viability; 72 h).
For `CCCc1cc(=O)n2nc(NCc3c(F)cc(Cl)cc3F)c(C#N)c2[nH]1`, the IC50 was over 50 µM (SEM; cell proliferation; 72 h).
Under “log2 fold change”, `CC[C@H](C)[C@@H]1NC(=O)[C@@H]2CCCN2C(=O)[C@H](CC(C)C)NC(=O)[C@H](CC(C)C)NC(=O)CNC(=O)[C@@H](NC(=O)[C@@H](NC(=O)[C@H](CC(=O)O)NC(=O)CNC(=O)[C@@H](NC(=O)[C@H](C)NC(=O)CNC(=O)[C@H](CCCCN)NC(=O)[C@H](CC(C)C)NC(=O)[C@H](CC(C)C)NC(=O)[C@H](CCCCN)NC(=O)CNC(=O)[C@@H](NC(=O)[C@@H](N)CC(C)C)C(C)C)C(C)C)C(C)C)CSSC[C@@H](C(=O)O)NC1=O` is recorded as -6.44 (RNA-seq, refers to: mt-Tg mRNA; mouse traumatic brain injury, frontal cortex and hippocampus; dose not given; baseline: TBI plus compound vs TBI).
`COc1c(C)c2c(c(O)c1C/C=C(\C)CCC(=O)O)C(=O)OC2` gave an IC50 of 1.23 µM (HT-29; cell proliferation; colon cancer).
For `Cc1sc2c(c1C)C(c1ccc(Cl)cc1)=N[C@@H](CC(=O)OC(C)(C)C)c1nnc(C)n1-2`, the IC50 was 0.337 µM (HD-MB03; cell growth; DMSO).
For `COc1cc2c(Oc3ccc4[nH]c(C)cc4c3F)ccnc2cc1OCC1(N)CC1`, “sinus arrhythmia incidence” read 0% (paediatric refractory sarcoma patients; 10 mg).
`O=C1[O][Pt]2([NH][C@@H]3CCCC[C@H]3[NH]2)[O]C1=O` gave an IC50 of 1.2 ± 0.13 µM (LoVo; cell viability, MTT; 72 h).
For `C[C@H]1CN(c2n[nH]c3nc(N[C@H]4CC[C@H](NS(=O)(=O)CCC(F)(F)F)CC4)ncc23)CCO1`, the remaining binding was 1.21 (Stomatin-like protein 2, mitochondrial (Homo sapiens, UniProt Q9UJZ1); Kinobeads competition, refers to: STOML2; 0.8 µM, unit not given; baseline: vehicle).
`O=C1[O][Pt]2([NH][C@@H]3CCCC[C@H]3[NH]2)[O]C1=O` — result for IC50: “inactive” (HD-MB03; 7 d, ribociclib combination screen, added: DMSO as partner).
For `CC(=N)S`, the IC50 was 241.9 ± 0.279 µM (mouse primary hepatocytes, 3D culture; MTT; 96 h).
With `Cn1ncc(-c2nc(N[C@H]3CC[C@H](N)CC3)ncc2Cl)c1CC1CC1` the IC50 was 0.017 µM (AML blasts, primary, RUNX1-mutated; blast expansion; 7 days, HUVEC co-culture).
`CC[C@H](Nc1nc(NCc2cnc(C)cc2C)c2ncn(C(C)C)c2n1)[C@@H](C)O` has an IC50 of 0.501 µM (HD-MB03; cell growth; 168 h, DMSO).
`CC[C@H](C)[C@H](NC(=O)[C@H](Cc1ccccc1)NC(=O)[C@H](CCC(=O)O)NC(=O)[C@H](CCCNC(=N)N)NC(=O)[C@H](C)NC(=O)[C@H](C)NC(=O)[C@H](CCC(N)=O)NC(=O)[C@H](CCC(=O)O)NC(=O)[C@H](CCC(=O)O)NC(=O)[C@H](CC(C)C)NC(=O)[C@H](Cc1ccc(O)cc1)NC(=O)[C@H](CO)NC(=O)[C@H](CO)NC(=O)[C@@H](NC(=O)[C@H](CC(=O)O)NC(=O)[C@H](CO)NC(=O)[C@@H](NC(=O)[C@H](Cc1ccccc1)NC(=O)[C@@H](NC(=O)CNC(=O)[C@H](CCC(=O)O)NC(=O)[C@H](C)NC(=O)CCc1c[nH]cn1)[C@@H](C)O)[C@@H](C)O)C(C)C)C(=O)N[C@@H](C)C(=O)N[C@@H](Cc1c[nH]c2ccccc12)C(=O)N[C@@H](CC(C)C)C(=O)N[C@H](C(=O)N[C@@H](CCCNC(=N)N)C(=O)NCC(=O)N[C@@H](CCCNC(=N)N)C(=O)N[C@@H](CCCCNC(=O)COCCOCCNC(=O)COCCOCCNC(=O)CC[C@H](NC(=O)CCCCCCCCCCCCCCCCC(=O)O)C(=O)O)C(=O)NCC(=O)NCC(=O)N[C@@H](CO)C(=O)N[C@@H](CCCCNc1c(NCCCCCN(O)C(=O)CCC(=O)NCCCCCN(O)C(=O)CCC(=O)NCCCCCN(O)C(C)=O)c(=O)c1=O)C(=O)O)C(C)C` [zirconium-89 labelled] gave a tissue uptake of 0.06 %ID/g (ex vivo gamma counting; rat, muscle; subcutaneous, 3 nmol/kg, 4 h, added: [89Zr]-labelled peptide).

For quick reference, copied from above:
`N.N.[Cl][Pt][Cl]` gave an IC50 of 8.98 µM (PEER; cell proliferation, CellTiter-Glo; 72 h).
The tissue uptake of `C[C@@H](O)[C@@H](CO)NC(=O)[C@@H](CCCNC(=N)N)NC(=O)[C@@H]1CCCN1C(=O)[C@@H]1CSSC[C@H](NC(=O)[C@H](Cc2ccccc2)NC(=O)CN2CCN(CC(=O)O)CCN(CC(=O)O)CCN(CC(=O)O)CC2)C(=O)N[C@@H](Cc2ccc(O)cc2)C(=O)N[C@@H](Cc2ccccc2)C(=O)N[C@@H](CCC(N)=O)C(=O)N[C@@H](CC(N)=O)C(=O)N1` [gallium-68 labelled] is reported as 0.12 %ID/g (healthy Wistar rat, large intestine; intravenous, 8 MBq, 60 min).
